Experimental data pooled from the literature.
Each numbered part is a random draw from the data of one study; scales do not carry over between parts. Changes are numbered by the printed parent chain.

Study 1
Target: NFE2, bZIP domain (human)
Method: DHFR protein complementation
Medium: yeast
Setting: single substitutions, most at no-binding floor
Reference: wild-type JUN-FOS pair
Direction: higher = stronger binding
Endpoint: binding fitness
Parent: JUN, bZIP domain (human); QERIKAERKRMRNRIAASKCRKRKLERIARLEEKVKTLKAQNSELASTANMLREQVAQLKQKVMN; partner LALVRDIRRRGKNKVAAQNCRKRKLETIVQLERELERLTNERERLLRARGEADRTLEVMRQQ
A29E: -1.21 natural log
L52E: -1.29 natural log
T37E: -1.45 natural log
E44K: -1.51 natural log
E44A: -1.48 natural log
E32A: -1.37 natural log
E32R: -1.41 natural log
L31Q: -1.64 natural log
L45C: -1.5 natural log
L52G: -1.5 natural log

Study 2
Target: RNA binding protein fox-1 homolog 2, RRM domain, GST-SBP tag (RBFOX2, Homo sapiens, UniProt O43251-10, residues 100-194)
Method: RNA Bind-n-Seq
Molecule type: RNA
Medium: in vitro
Tested at: 365 nM
Setting: natural RNA segment, single round, ends assumed
Reference: no-protein control
Direction: higher = stronger binding
Endpoint: RBNS enrichment (R)
Residues (chain): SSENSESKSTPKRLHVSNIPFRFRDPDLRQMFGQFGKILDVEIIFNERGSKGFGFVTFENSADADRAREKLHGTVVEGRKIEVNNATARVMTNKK
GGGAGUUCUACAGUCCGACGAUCAGUGCUGGGAUUAAAGGCGUGCGCCACCACGUCUGGCUCCAUUUCUAAGUCUUGAACCAACUGACUCCCGAAUGCCAUUCCCGGAAGGAACCAAGUGGUGACUUUGUCCUUGGAAUUCUCGGGUGCCAA: 0.373
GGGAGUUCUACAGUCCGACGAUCCAGGCCCAGCGGGAGGGGGUUUUAUGUUUUGUUUCAAACAGAAAACACAACCUUAUUUUUCUUUACAAAAGCAAAAAAGGAAACCAAAAAAGAUACAGCCUUUGAAUGAUUGGAAUUCUCGGGUGCCAA: 0.736
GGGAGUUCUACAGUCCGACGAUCCCUCAGUCCCUGCUCCAAACUAUGAAGCUCACCCUUCAUUUUUCCUCCCUGCUAUUGUGGACCUAAGCAAUUACAGUUUAAAUUCUGUAUACAGCACUAGUCAAGACAAUUGGAAUUCUCGGGUGCCAA: 0.306
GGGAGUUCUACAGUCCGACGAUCCGCUCCCUUCCCUAAGGAUCCACUCCUACAGUUCAUUUAGAGAAUGGCUACUGCUGAGUCCUCUGGGGUUGAGGGAAGGCGAGCCGGGCAGGGGCCAUGUCAUGUUAUUGUGGAAUUCUCGGGUGCCAA: 0.659
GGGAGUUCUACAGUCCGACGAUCCAUGACUGCAGUAUGCAUGUAUUUUUUUCCUUCUCUGUGUUUUCUAAACUUACACUAAAGGAUUCAUCAAAUCAUCUUGUUCAGAUGGCUCAGGAUUGUAUUUAUUUUGCUGGAAUUCUCGGGUGCCAA: 1.73
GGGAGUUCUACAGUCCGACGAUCCCCCAGUGGGGAGGUGACUGUGUUUCCCAGAGUGUGAGCCGCUCUCCUCCCCCUAAAAAGCUGACUCACUGUGAGUGACCUUGGGCAAGUUCCCAAACCUCCUUGUGCCUUGGAAUUCUCGGGUGCCAA: 0.34
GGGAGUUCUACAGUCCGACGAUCCCCAGGACAGUGUUACUUCUUCUGCAUGAUGUGUGGUAGACUCCCUUUGCUGGCUUGUGCAGUGAUACUGAGAAAAUACAUGAACAGAAACUGCCCAGGUGGAACAGCACUGGAAUUCUCGGGUGCCAA: 8.57
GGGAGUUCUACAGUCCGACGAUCUCAAGGUCUGUAAUUGUAUUUCAAAAACGAUGUCGUAUUCAAGUUGUGAAGGGAUUUGUUUUGUCAAAAAAUUAAAAACUCAAUGUGUAUGACGCCACUCUGAAGAGUAGUGGAAUUCUCGGGUGCCAA: 0.467
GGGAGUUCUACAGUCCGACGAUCCUCUGUCCUCCCUGUGGAAUCCCUCUGUGGGGCAGGAUGAGUCCUUUGGUGGCCCUCUACUCUAUUGUCCCACACCCUACAUUCUCUCCUCUGGACUCCCAAGGAGGCUGUGGAAUUCUCGGGUGCCAA: 0.58
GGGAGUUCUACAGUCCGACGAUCUGAAAUUACUUGCUUCCCAAAUUAAAUAAAUUUCAUCUCAUUUUUUUCCCUAAACCAGCACCCAUCUGCCUUUUAUUCCCCAAAGAGUUACCUUUCCCAGAUUAGGGGGAUGGAAUUCUCGGGUGCCAA: 2.15
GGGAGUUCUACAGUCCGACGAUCUUGAAGCGGACUGCUGCGGAUGCAACUCCCAGCUUGCCCACCGCGGGCUGUCUGCUCUCCCUCCUAGCAGCUGUCACACUGAAGUUUUGUCCUCUGCUGUCUCCUCUGGUUGGAAUUCUCGGGUGCCAA: 2.05
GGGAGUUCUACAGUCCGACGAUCCUUUUUUGUUGUUUUGUUUUUCUUUUUUGGCCUAAGGAAGAAAGCUGUGAUAAAUUUCAAAUUUGCAUAGCUUUUCAAUGUUUUGCUCUGCUCCCGCUCUUGCUUCAGAGUGGAAUUCUCGGGUGCCAA: 1.16

Study 3
Target: Sal-like protein 4, full length isoform B (SALL4, Homo sapiens, UniProt Q9UJQ4-2, residues 1-616)
Method: universal PBM
Molecule type: double-stranded DNA, one strand shown
Medium: in vitro
Tested at: not given
Setting: 8-mer, flanks averaged, mean of replicates
Direction: higher = stronger binding
Endpoint: E-score
CGCTATAG: 0.0789
CCAACTAG: 0.0637
CAATAACG: 0.308
ACCCGGCC: -0.362
AAGGGTTG: 0.06
CTTAAAGC: -0.0738
ACTTAACT: 0.103
ACAATGCT: 0.0406
CCGCCATA: 0.092
ACTGCCTG: -0.107
AACAAGGG: 0.00721
TAACACTA: 0.315
AGACGTTA: 0.185
ACCTAGGA: -0.0193
AACTTGAA: 0.133

Study 4
Target: Max dimerization protein 1, bHLH-zipper, MAX partner unstated (MXD1, Homo sapiens, UniProt Q05195, residues 56-136)
Method: protein-binding microarray
Molecule type: double-stranded DNA, one strand shown
Medium: in vitro
Tested at: not given
Setting: k-mer, scored over probes, only values ≥0.25
Direction: higher = stronger binding
Endpoint: E-score
Construct (chain): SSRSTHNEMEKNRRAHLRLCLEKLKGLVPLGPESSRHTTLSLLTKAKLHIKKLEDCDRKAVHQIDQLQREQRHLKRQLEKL
GAACGCAC: 0.256
CCGCGTGA: 0.365
AACCATGT: 0.281
CACGCTTA: 0.377
CGATCCCC: 0.281
CAGGCATG: 0.393
CCCCTCCA: 0.341
CGCGTACA: 0.274
ACATGCTA: 0.372
CGAACACG: 0.288
ACGTGAGT: 0.298
ATGCTTCC: 0.289
ACACCTGT: 0.296
GGGGAGGA: 0.264
AACATGAG: 0.341

Study 5
Target: PABPC1L2, full length, GST fusion (mouse, UniProt A0ABA7IW68)
Method: RNAcompete
Molecule type: RNA
Medium: in vitro
Tested at: 20 nM
Setting: 7-mer, probes averaged, single round
Reference: mean of 7-mers
Direction: higher = stronger binding
Endpoint: 7-mer Z-score
Target sequence (chain): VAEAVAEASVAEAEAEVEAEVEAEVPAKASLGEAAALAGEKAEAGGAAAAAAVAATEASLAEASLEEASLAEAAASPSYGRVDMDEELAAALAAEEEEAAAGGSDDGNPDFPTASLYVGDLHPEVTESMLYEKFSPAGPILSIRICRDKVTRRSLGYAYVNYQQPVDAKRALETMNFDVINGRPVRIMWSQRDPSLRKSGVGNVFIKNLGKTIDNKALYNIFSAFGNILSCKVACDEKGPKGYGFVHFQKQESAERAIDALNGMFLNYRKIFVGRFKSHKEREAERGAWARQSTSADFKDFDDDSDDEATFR
GCAAAUA: 0.318
AAGCGGC: 0.36
GUCGGAU: -0.0971
UCGUGCG: -0.275
AUACUAC: -0.215
UGAUCGA: -0.0554
UUGCACG: -0.284
CAGAGCA: 0.128
UCACCGC: -0.215
UACCUUA: -0.271
GCUACCC: -0.249
CCUAGGU: -0.226
AUCAGGA: 0.0768
UUGUGCG: -0.367
ACUGCGG: 0.18

Study 6
Target: Histone acetyltransferase KAT6A, winged helix 2, GST fusion (KAT6A, Homo sapiens, UniProt Q92794, residues 85-181)
Method: protein binding microarray
Molecule type: double-stranded DNA, one strand shown
Medium: in vitro
Tested at: not given
Setting: 8-mer, flanks averaged, mean of 2 arrays, mostly near background
Reference: not given
Direction: higher = stronger binding
Endpoint: E-score
Residues (chain): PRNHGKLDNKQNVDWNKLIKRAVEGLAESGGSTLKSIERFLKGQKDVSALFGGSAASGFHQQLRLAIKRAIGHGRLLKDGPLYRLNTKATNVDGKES
GTAGGAAC: 0.0316
AATAACCA: -0.169
ACCTTGCC: -0.0225
ACAAAGGT: -0.105
AGTTTCAG: -0.0702
CGCACAGA: -0.000785
CCGCCCGG: 0.325
AAGCGATG: 0.00981
AACACCTT: -0.0485
CAGGGATC: 0.0316
GGAATCGA: -0.0371
CCACATGG: -0.0384
CCATCTAG: -0.0515
CCAAGTGA: -0.188
AATAACAC: -0.133

Study 7
Target: Interferon regulatory factor 5, full length, phosphomimetic (IRF5, Homo sapiens, UniProt Q13568-2, residues 1-514, K96S/S451D/S453D/S456D/S462D)
Method: protein-binding microarray
Molecule type: double-stranded DNA, one strand shown
Medium: in vitro
Tested at: 250 nM
Setting: 60-bp whole probe
Together with: salmon DNA 0.4 mg/ml
Reference: random background probes
Direction: higher = stronger binding
Endpoint: log fluorescence
All sequences stand within: GCCTAGCAC … GTCTTGATTCGCTTGACGCTGCTG
GACGGACTGGATTATCGGGACGTGCTA: 0.354 z-score
TTAGCTCTCCTACTGCTTTAGTGCTAG: -0.295 z-score
TTAGGACGGGGGTATCGGTTAGTGCTA: 4.64 z-score
TGTGCATGTGTGTTTTCTGCGTGCTAG: 0.172 z-score
TTCATTATTGTTTCCTTCCTGTGCTAG: 1.58 z-score
TTAGGTCTTGGTCTCGGTTAGTGCTAG: 0.482 z-score
GACGGTTTCCTTTCCCTGACGTGCTAG: 1.47 z-score
AGACACCCCTTTGGTGCCACGTGCTAG: -0.414 z-score
TTAGAGCTCAGACTGGATTAGTGCTAG: -0.363 z-score
CCCAGGGTCTGTTTGGGTCTGTGCTAG: -0.831 z-score
TCATTTCTAATTTACTTACTGTGCTAG: 1.41 z-score
TTTTACATTTTAAGAAATGTGTGCTAG: 1.23 z-score
GACCGACTGCTTCTCCTGACGTGCTAG: -0.521 z-score
GACGGTCTCGGACTGGGGAGGTGCTAG: -0.297 z-score
CACGATATCGGGTATCGAGACGTGCTA: 2.33 z-score
TCACCTTTATGTACTCTCACTGTGCTA: 0.624 z-score
GACGTTTTCGACTTTCGGGACGTGCTA: 7.22 z-score

Some of these lines once more (study 5):
CAGAGCA: 0.128
UCACCGC: -0.215
UACCUUA: -0.271
GCUACCC: -0.249
CCUAGGU: -0.226
AUCAGGA: 0.0768
